Measurements collected from several papers.
Numbered parts are unrelated; each lists some results of a single study. Substitutions count along the parent as printed.

Study 1 — technique: DHFR PCA, deep sequencing; sample: yeast; with: (+)-ABA 2500 µM; baseline: wild-type fitted maximum; direction: higher = stronger binding; measurement: relative binding score
Target: ABI1, truncated, D143A, DHFR fusion (Arabidopsis thaliana)
Notes: methotrexate growth selection, single substitutions
Starting sequence: PYL1, truncated, DHFR fusion (Arabidopsis thaliana); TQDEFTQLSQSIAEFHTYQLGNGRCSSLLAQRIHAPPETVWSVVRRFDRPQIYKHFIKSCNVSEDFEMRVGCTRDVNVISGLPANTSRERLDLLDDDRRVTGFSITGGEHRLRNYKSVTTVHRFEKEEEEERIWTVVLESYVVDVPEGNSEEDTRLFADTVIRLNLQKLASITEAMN
R88Q: 93.6%
N85E: 96.2%
S171G: 94%
G21D: 99.4%
L156Q: 92.7%
E139K: 75.9%
Q2D: 97.8%
E131F: 101%
T154I: 82%
V62G: 82%
A170D: 78.1%
R74K: 12.6%
V161S: 31.1%
D48P: 74.3%
I52L: 95.9%
T73E: 100%
V44M: 88.5%
Y141T: -0.0793%
E151N: 96.2%
L82R: 15.6%

Study 2 — technique: RNA Bind-n-Seq; form: RNA; sample: in vitro; tested at: 365 nM; baseline: no-protein control; direction: higher = stronger binding; measurement: RBNS enrichment (R)
Target: RNA binding protein fox-1 homolog 2, RRM domain, GST-SBP tag (RBFOX2, Homo sapiens, UniProt O43251-10, residues 100-194)
Notes: natural RNA segment, single round, ends assumed
Construct (chain): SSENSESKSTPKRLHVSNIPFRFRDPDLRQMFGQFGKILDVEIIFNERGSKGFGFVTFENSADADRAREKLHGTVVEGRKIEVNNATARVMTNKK
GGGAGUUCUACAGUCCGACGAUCUCUCAUUAAUGGCUGAUGCAAACUUAGUGAAUAAUAAUGAAUAUAAACAAUGCUCACCUCACCAAAAUUAUAUUAUUUGCAGUCAUUUGUGAUAACACAAAUUUUAUCGCUGGAAUUCUCGGGUGCCAA: 1.02
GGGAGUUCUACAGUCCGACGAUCAGGCUGGGGUGACCCUUCCCCCAUCAUUGGGCCCCAACGGGCAUGUCUCCACCGAAUCCAUUUAGAGAAAUGUCAGAGCGAGGGUUGUGUGGACACCCCUCGCUCUGAUGUGGAAUUCUCGGGUGCCAA: 0.354
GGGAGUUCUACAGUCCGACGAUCGAAGAGUUUAAAGAGAAAAGGGAAAAAAGAAAGAAAAAGUAAGCAGGGCUGGCUUCGCCCGCGUUCUCGUCGUCGGAUCAAGGAGCGCGGCGGCGUUUUGGACCCGCGCUUGGAAUUCUCGGGUGCCAA: 1.41
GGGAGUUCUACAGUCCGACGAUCAAUUCUAAAAGCCCAAUUGAGAUGUUCAGGGAGGGUUUGUUUUGCCCUUUGGCCUCAUGAAUGGGUUUCAUGAAUGGGCUUCAGUGGCUUAUAAACUCUGUAAAAUUCUAUGGAAUUCUCGGGUGCCAA: 0.32
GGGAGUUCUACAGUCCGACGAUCUCUGAUGAAUGAUUAUGGUCUAUACAUAAAAAAGUAAGACUAAGUAUUGCUGAAUUUGCAGUUAUGUUGUCGUGUAUAAGAGCUACUUCCAAGUGUGGUUACAAAUGAACUGGAAUUCUCGGGUGCCAA: 1.25
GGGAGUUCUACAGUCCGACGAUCGCUGAUACAGUACUCAGAAGACUGAACAAAUACUUGAAAAUGGGUUCAAUGUAGACUGCCAUUCUGUGUGGUCUUCCCAUUAAAUGUGAACAUUUUAAUAUGUAUGCAUUUGGAAUUCUCGGGUGCCAA: 0.205
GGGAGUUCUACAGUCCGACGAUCCAGAAGUUUGGGAACUCAAAAGUGACAUCAGGAAAGUUAGGAAAAAGUCCACUGUCAACAUUAUCAGCUCUCCUCAUUUCGAGCUAUCUGCUAGUCACAGCUGAAUAGCUUGGAAUUCUCGGGUGCCAA: 0.472
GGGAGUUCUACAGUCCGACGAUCGGGAGAAGCUUCUCUGAGGGGCUCGCUCUGCUUUUCCUUCACGGUUUUAUUUUUGAUUGUUUUUUCUUGUUGCCCAUCUGUGCUAAGCCUUAACUGUGGCAAAAAUAAUGUGGAAUUCUCGGGUGCCAA: 0.416
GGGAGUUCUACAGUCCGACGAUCACUGUUCCUGUCAGGAUUUGUUUCCCUCUGCUGUGGCGGUGACUGCUUCUGGACCAGAACAGCUCCAGCUCCCAGGUAUUUUCUACAGGACCACUUGAGUGGGCAGCCAAUGGAAUUCUCGGGUGCCAA: 0.311
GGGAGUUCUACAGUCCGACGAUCGAGGCUCUGCGUUCUGGGGGCUUUUUCUUCUCCUCCCCCUACCCGGUUUCCCUCCCUGUUUUCCUACCUCUACGGCAAGCCCAAAGUGUCUUCCCGGGAGCCCAGCGCAGUGGAAUUCUCGGGUGCCAA: 0.761
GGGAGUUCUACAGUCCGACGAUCACGUCUGACAAAUGUGUGUAUGUGCUUUGAGCACUGUGUACAUCUUAGGAUAAUGGUGGACAUUUCAGUGCAUGUUUAGCUAAUGAACUUAGUUUUCUUUGCCCUUUCCAUGGAAUUCUCGGGUGCCAA: 0.913
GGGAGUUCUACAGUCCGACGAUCAUACCUAAGCAAACCCAGUGUCAGGAUGGUAAUUCUUAUUCUUUCGUUCAGUUAAGUUUUUCCCUUCAUCUGGGCACUGAAGGGAUAUGUGAAACAAUGUUAACAUUUUUUGGAAUUCUCGGGUGCCAA: 0.625

Study 3 — technique: universal PBM; form: double-stranded DNA, one strand shown; sample: in vitro; tested at: not given; direction: higher = stronger binding; measurement: E-score
Target: Sal-like protein 4, full length isoform B (SALL4, Homo sapiens, UniProt Q9UJQ4-2, residues 1-616)
Notes: 8-mer, flanks averaged, mean of replicates
Construct (chain): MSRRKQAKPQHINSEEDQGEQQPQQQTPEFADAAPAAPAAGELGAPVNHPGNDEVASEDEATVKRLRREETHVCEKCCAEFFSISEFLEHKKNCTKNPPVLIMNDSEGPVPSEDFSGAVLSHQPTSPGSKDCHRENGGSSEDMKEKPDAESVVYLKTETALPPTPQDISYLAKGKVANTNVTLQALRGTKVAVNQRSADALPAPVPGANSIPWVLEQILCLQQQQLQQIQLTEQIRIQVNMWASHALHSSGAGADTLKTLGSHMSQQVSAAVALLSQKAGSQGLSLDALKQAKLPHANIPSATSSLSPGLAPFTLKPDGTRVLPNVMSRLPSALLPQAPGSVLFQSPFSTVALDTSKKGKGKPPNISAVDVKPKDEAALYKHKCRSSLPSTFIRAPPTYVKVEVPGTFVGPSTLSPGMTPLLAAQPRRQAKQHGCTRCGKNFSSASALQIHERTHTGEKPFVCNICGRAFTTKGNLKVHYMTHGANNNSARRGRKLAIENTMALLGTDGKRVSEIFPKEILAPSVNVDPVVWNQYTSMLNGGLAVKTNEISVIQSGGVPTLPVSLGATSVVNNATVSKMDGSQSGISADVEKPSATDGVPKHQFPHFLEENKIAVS
AAACATAT: 0.356
CACATCGG: -0.222
CCGGTGCA: -0.317
CTAAAGAG: -0.0726
GGTATTAA: 0.177
ATTCCGAG: -0.00804
GGGGTGAA: -0.0846
CAGCATAA: 0.228
CCGAGTGC: -0.284
ACAGAACA: 0.0944
CATAATAG: 0.337
CCACAATA: 0.191
ACTCCCAG: -0.191
GCGTCTAA: 0.0519
AATTGTAG: 0.232
CTATCGGA: 0.057
ACAACGGT: -0.0369
CAGCCGAA: -0.152
TACTTAGA: 0.0825

Study 4 — target: UBE2G2 UBC core domain (UniProt P60604); technique: yeast two-hybrid; sample: yeast; notes: mostly zero background; baseline: not given; direction: higher = stronger interaction; measurement: lacZ reporter activity
B1: RNF187 RING domain (UniProt Q5TA31); chain ALPAGPAEAACALCQRAPREPVRADCGHRFCRACVVRFWAEEDGPFPCPECADDCWQRAVEP
B2: RLIM RING domain (UniProt Q9NVW2); chain SFGENDALKTCSVCITEYTEGNKLRKLPCSHEYHVHCIDRWLSENSTCPICRRAVLASGNRE
B3: MYCBP2 RING domain (UniProt O75592); chain TSLKQDADDMCMICFTEALSAAPAIQLDCSHIFHLQCCRRVLENRWLGPRITFGFISCPICKNKINHIVLKD
B4: TRIM22 RING domain (UniProt Q8IYM9); chain VKVDIEKEVTCPICLELLTEPLSLDCGHSFCQACITAKIKESVIISRGESSCPVCQTRFQPGNLRP
B5: RNF183 RING domain (UniProt Q96D59); chain EQQGRELEAECPVCWNPFNNTFHTPKMLDCCHSFCVECLAHLSLVTPARRRLLCPLCRQPTVLASGQP
Residues (chain): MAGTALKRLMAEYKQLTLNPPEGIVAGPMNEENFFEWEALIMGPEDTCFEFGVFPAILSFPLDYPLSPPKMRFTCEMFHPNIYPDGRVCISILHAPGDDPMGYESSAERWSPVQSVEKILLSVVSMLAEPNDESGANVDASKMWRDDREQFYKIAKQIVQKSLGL
B1 (RNF187 RING domain): 0
AEADPLGRFTCPVCLEVYEKPVQVPCGHVFCSACLQECLKPKKPVCGVCRSALAPGVRAV (RNF114 RING domain (UniProt Q9Y508)): 0
B2 (RLIM RING domain): 0
B3 (MYCBP2 RING domain): 0
YPEEVDDDLICHICLQALLDPLDTPCGHTYCTLCLTNFLVEKDFCPMDRKPLVLQHCKK (LNX1 RING domain (UniProt Q8TBB1)): 0
B4 (TRIM22 RING domain): 0
B5 (RNF183 RING domain): 0
MNDVLENELQCIICSEYFIEAVTLNCAHSFCSYCINEWMKRKIECPICRKDIKSKTYSL (RNF8 RING domain (UniProt O76064)): 0
QVQSRTKIEECVVCSDKKAAVLFQPCGHMCACENCANLMKKCVQCRAVVERRVPFI (MIB1 RING domain (UniProt Q86YT6)): 0

Study 5 — target: CREBZF, bZIP domain (human); technique: DHFR protein complementation; sample: yeast; baseline: wild-type JUN-FOS pair; direction: higher = stronger binding; measurement: binding fitness
Notes: single substitutions, most at no-binding floor
Starting sequence: JUN, bZIP domain (human); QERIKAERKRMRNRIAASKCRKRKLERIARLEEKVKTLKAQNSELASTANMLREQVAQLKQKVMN; partner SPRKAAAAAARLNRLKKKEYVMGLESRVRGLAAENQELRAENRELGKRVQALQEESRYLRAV
L59G: -1.09 natural log
Q55R: -1.51 natural log
L52R: -1.53 natural log
A49Y: -1.56 natural log
K39T: -1.45 natural log
A46E: -1.32 natural log
K36W: -1.54 natural log
M51T: -1.19 natural log
A29T: -1.35 natural log
K34A: -1.37 natural log
L31P: -1.39 natural log
K39Q: -1.51 natural log
S43A: -1.33 natural log
V56E: -1.57 natural log
L38K: -1.5 natural log
E54H: -1.43 natural log
A57L: -1.47 natural log
V56D: -1.49 natural log
L38N: -1.56 natural log
V35K: -1.47 natural log
K39L: -1.46 natural log
K39D: -1.23 natural log
E32I: -1.51 natural log
T48L: -1.36 natural log

Study 6 — target: CCNB3, cyclin fold, Cln2 fusion (human); technique: yeast growth competition, sequencing; sample: yeast; notes: weak parent motif; baseline: not given; direction: higher = stronger binding; measurement: normalised enrichment score
Starting sequence: EXO1 docking peptide (human); KPECGRVQRAIFQ
KPECGRVQRAIFA [Q13A]: 0.0815
KPECGRVARAIFQ [Q8A]: 0.173
KPECGAVQRAIFQ [R6A]: -0.0469
KPECGRVQAAIFQ [R9A]: -0.152
KPEAGRVQRAIFQ [C4A]: -0.0491
KPECGRVQRAIAQ [F12A]: 0.247

Excerpt of the above (study 5):
Q55R: -1.51 natural log
L52R: -1.53 natural log
A49Y: -1.56 natural log
K39T: -1.45 natural log
A46E: -1.32 natural log
K36W: -1.54 natural log
M51T: -1.19 natural log
